Results collected from several papers.
Lines come from different studies, so protocols differ. “And” joins repeats or separate records; there may be more than shown. Numbers after ± are the reported error.

`benzalkonium chloride` has a cell viability of roughly 40% (PC-12; CCK-8; 10 µM, light-degraded residues of compound, with: sunlight 100 mW/cm^2 for 4 h).
With `capreomycin sulfate` the Tmax was 21.4 min (guinea pig, serum; insufflation, dose not given, dry powder combination single dose).
`calpain inhibitor III` gave a CC50 of greater than 2.5 µM (Vero E6; cell viability).
With `heparin sodium` the elevated neutrophil was 0% (healthy Chinese adult volunteers; continuous intravenous infusion, 8 IU/kg/h, 5 days).
`glucagon` gave a splanchnic extraction of 29.1 ± 2.9% (arteriovenous isotope dilution; human, non-diabetic; iv, dose not given, overnight fasted, baseline).
`mastoparan` — result for “lowest cytotoxic concentration”: 25 to 30 µM (Swiss 3T3 quiescent).
The Tm of `NLVPMVATA` is reported as 48.2 ± 0.1 °C (HLA-A2 complex with compound; nanoDSF; peptide; pH 7.6, 2 µM complex).
The Kd of `nonaarginine` is reported as 1.21 ± 0.1 µM (PorA peptide pore; peptide binding, planar bilayer single-channel recording; pH 7.4, +5 mV, trans side, 150 mM KCl).
The segmented neutrophils of `HVLVMSATRR` is reported as 1% and 8% and 7% and 4% (peptide, C57BL/6J mice, male, blood; subcutaneous osmotic pump, 3 mg/kg/day peptide basis, 8 weeks).
`DPDPE` gave a retention time of 8.54 min (RP-HPLC; HALO Phenyl-hexyl column; 25 µM, acetic acid/methanol, 10 min gradient).
Under “mRNA fold change”, `insulin human` is recorded as 0.94 (item: DLG4; mouse, EcoHIV-infected, brain; ip, dose not given, with: insulin; relative to: PBS-treated).
The cell-associated peptide of `Ac-LRKLRKRLLRDWLKAFYDKVAEKLKEAF-NH2 (N-acetyl, C-amide)` is reported as 56 ± 1.3% (THP-1 derived macrophages; peptide; 2 h pulse, 120 min chase, heparin wash).
`Polymyxin B`: “cystatin C level” 31.7 ng/mL (mouse, urine; 20 mg/kg).
With `aspterric acid` the root length was 1.08 cm (Arabidopsis thaliana Col-0 seeds; 3.125 µg/mL, seed germination).
The beta-turn content of `QAKTFLDKFNHEAEDLFYQ` is reported as 13.1% (circular dichroism; peptide, water/TFE 1:1 v/v; 200 µM, 25 °C).
`verteporfin` has a CC50 of 5.23 ± 0.22 µM (Vero E6; WST-1).

For quick reference, copied from above:
`mastoparan` — result for “lowest cytotoxic concentration”: 25 to 30 µM (Swiss 3T3 quiescent).
